Measurements gathered from unrelated publications.
Protocols differ between the studies behind these lines.
Organism: Acinetobacter baumannii

The MIC of CC1(C)[C@H](NC(=O)/C(=N\OCc2cc(=O)c(O)cn2O)c2csc(N)n2)C(=O)N1OS(=O)(=O)O is reported as 0.5 µg/mL (agar dilution; ATCC 19606).
CCCCCCCC(=O)N[C@@H](CCN)C(=O)N[C@H](C(=O)N[C@@H](CCN)C(=O)N[C@H]1CCNC(=O)[C@H]([C@@H](C)O)NC(=O)[C@H](CCN)NC(=O)[C@H](CCN)NC(=O)[C@H](CC(C)C)NC(=O)[C@@H](C)NC(=O)[C@H](CCN)NC1=O)[C@@H](C)O has an MIC of 128 µg/mL (CLSI broth microdilution; 248-01-C.248, CAMHB; 20 h, 37 °C).
For CC[C@H](C)[C@H](NC(=O)[C@@H](CCCNC(=N)N)NC(=O)[C@H](CCCNC(=N)N)NC(=O)[C@H](CCC(N)=O)NC(=O)[C@H](Cc1c[nH]c2ccccc12)NC(=O)[C@H](CCCNC(=N)N)NC(=O)[C@@H]1CCCN1C(=O)[C@H](CCCNC(=N)N)NC(=O)[C@@H]1CCCN1C(=O)[C@H](CC(C)C)NC(=O)[C@H](Cc1ccc(O)cc1)NC(=O)[C@@H]1CCCN1C(=O)[C@@H]1CCCN1C(=O)[C@H](CCCCN)NC(=O)[C@H](CC(=O)O)NC(=O)[C@@H](N)C(C)C)C(=O)N[C@@H](Cc1ccc(O)cc1)C(=O)N[C@@H](CC(N)=O)C(=O)N[C@H](CCCNC(=N)N)C(N)=O, the MIC was 32 µg/mL (broth microdilution; DSM 30008; 18 h, 37 °C, 25% MHB2).
CCCCCCCC(=O)N[C@@H](CCN)C(=O)N[C@H](C(=O)N[C@@H](CCN)C(=O)N[C@H]1CCNC(=O)[C@H]([C@@H](C)O)NC(=O)[C@H](CCN)NC(=O)[C@H](CCN)NC(=O)[C@H](Cc2ccc(Br)cc2)NC(=O)[C@@H](CC(C)C)NC(=O)[C@H](CCN)NC1=O)[C@@H](C)O gave an MIC of 1 to 2 µg/mL (broth microdilution; colistin-resistant isolates).
CN[C@H](CC(C)C)C(=O)N[C@H]1C(=O)N[C@@H](CC(N)=O)C(=O)N[C@H]2C(=O)N[C@H]3C(=O)N[C@H](C(=O)N[C@H](C(=O)NCc4cn(CCCCC(=O)N[C@H](C(=O)N[C@@H](CCN)C(=O)N[C@H]5CCNC(=O)[C@H]([C@@H](C)O)NC(=O)[C@H](CCN)NC(=O)[C@H](CCN)NC(=O)[C@H](CC(C)C)NC(=O)[C@@H](CC(C)C)NC(=O)[C@H](CCN)NC5=O)[C@@H](C)O)nn4)c4cc(O)cc(O)c4-c4cc3ccc4O)[C@H](O)c3ccc(c(Cl)c3)Oc3cc2cc(c3O[C@@H]2O[C@H](CO)[C@@H](O)[C@H](O)[C@H]2O[C@H]2C[C@](C)(N)[C@H](O)[C@H](C)O2)Oc2ccc(cc2Cl)[C@H]1O has an MIC of 25 µM (broth microdilution; BAA-747).
For CC[C@H](C)[C@H](NC(=O)[C@@H](CCCNC(=N)N)NC(=O)[C@H](CCCNC(=N)N)NC(=O)[C@@H](NC(=O)[C@H](Cc1c[nH]c2ccccc12)NC(=O)[C@H](CCCNC(=N)N)NC(=O)[C@@H]1CCCN1C(=O)[C@H](CCCNC(=N)N)NC(=O)[C@@H]1CCCN1C(=O)[C@H](CC(C)C)NC(=O)[C@H](Cc1ccc(O)cc1)NC(=O)[C@@H]1CCCN1C(=O)[C@@H]1CCCN1C(=O)[C@H](CCCCN)NC(=O)[C@H](CC(=O)O)NC(=O)[C@@H](N)C(C)C)[C@@H](C)O)C(=O)N[C@@H](Cc1ccc(O)cc1)C(=O)N[C@@H](CC(N)=O)C(=O)N[C@H](CCCNC(=N)N)C(N)=O, the MIC was 16 µg/mL (broth microdilution; DSM 30008; 18 h, 37 °C, 25% MHB2).
For c1ccc2c(c1)nc(CNCC13CC4CC(CC(C4)C1)C3)n2CC1CCCCC1, the MIC was over 128 µg/mL (ATCC 17961).
With CC[C@H](C)[C@H](NC(=O)[C@H](CCCNC(=N)N)NC(=O)[C@H](Cc1c[nH]c2ccccc12)NC(=O)[C@H](Cc1c[nH]c2ccccc12)NC(=O)[C@H](CCCNC(=N)N)NC(=O)[C@@H](N)CCCNC(=N)N)C(=O)N[C@@H](Cc1c[nH]c2ccccc12)C(N)=O the MIC was 64 µg/mL (with: MgSO4 10 µM).
CC[C@H](C)[C@H](NC(=O)[C@@H](CCCNC(=N)N)NC(=O)[C@H](CCCNC(=N)N)NC(=O)[C@H](CC(N)=O)NC(=O)[C@H](Cc1c[nH]c2ccccc12)NC(=O)[C@H](CCCNC(=N)N)NC(=O)[C@@H]1CCCN1C(=O)[C@H](CCCNC(=N)N)NC(=O)[C@@H]1CCCN1C(=O)[C@H](CC(C)C)NC(=O)[C@H](Cc1ccc(O)cc1)NC(=O)[C@@H]1CCCN1C(=O)[C@@H]1CCCN1C(=O)[C@H](CCCCN)NC(=O)[C@H](CC(=O)O)NC(=O)[C@@H](N)C(C)C)C(=O)N[C@@H](Cc1ccc(O)cc1)C(=O)N[C@@H](CC(N)=O)C(=O)N[C@H](CCCNC(=N)N)C(N)=O gave an MIC of 32 µg/mL (broth microdilution; DSM 30008; 18 h, 37 °C, 25% MHB2).
The MIC of N=C(N)NCCC[C@@H]1NC(=O)[C@H](CCCNC(=N)N)NC(=O)[C@@H](CCCNC(=N)N)NC(=O)[C@@H](CCCNC(=N)N)NC(=O)[C@@H](C(c2ccccc2)c2ccccc2)NC(=O)[C@H](Cc2c[nH]c3ccccc23)NC(=O)[C@@H](C(c2ccccc2)c2ccccc2)NC1=O is reported as 8 µg/mL (NCTC 13304, carbapenem-resistant).
For CC[C@H](C)[C@H](NC(=O)[C@@H](CCCNC(=N)N)NC(=O)[C@H](CCCNC(=N)N)NC(=O)[C@@H]1CCCN1C(=O)[C@@H]1CCCN1C(=O)[C@H](CCCNC(=N)N)NC(=O)[C@@H]1CCCN1C(=O)[C@H](CCCNC(=N)N)NC(=O)[C@@H]1CCCN1C(=O)[C@H](CC(C)C)NC(=O)[C@H](Cc1ccc(O)cc1)NC(=O)[C@@H]1CCCN1C(=O)[C@@H]1CCCN1C(=O)[C@H](CCCCN)NC(=O)[C@H](CC(=O)O)NC(=O)[C@@H](N)C(C)C)C(=O)N[C@@H](Cc1cc(I)c(O)c(I)c1)C(=O)N[C@@H](CC(N)=O)C(=O)N[C@H](CCCNC(=N)N)C(N)=O, the MIC was 32 µg/mL (broth microdilution; DSM 30008; 18 h, 37 °C, 25% MHB2).
With CCn1c(-c2ccc(OC)cc2)c(-c2ccc(OC)cc2)n(CC)c1=[Se] the MIC was over 40 µM (broth microdilution; carbapenem-resistant; 24 h).
CCCCCCCC(=O)N[C@@H](CCN)C(=O)N[C@H](C(=O)N[C@@H](CCN)C(=O)N[C@H]1CCNC(=O)[C@H]([C@@H](C)O)NC(=O)[C@H](CCN)NC(=O)[C@H](CCN)NC(=O)[C@H](CCCCCC)NC(=O)[C@@H](Cc2ccccc2)NC(=O)[C@H](CCN)NC1=O)[C@@H](C)O has an MIC of 0.125 to 0.25 µg/mL (broth microdilution; ATCC 19606, colistin-susceptible).
For CN[C@H](CC(C)C)C(=O)N[C@H]1C(=O)N[C@@H](CC(N)=O)C(=O)N[C@H]2C(=O)N[C@H]3C(=O)N[C@H](C(=O)N[C@H](C(=O)N[C@@H](CCCNC(=N)N)C(N)=O)c4cc(O)cc(O)c4-c4cc3ccc4O)[C@H](O)c3ccc(c(Cl)c3)Oc3cc2cc(c3O[C@@H]2O[C@H](CO)[C@@H](O)[C@H](O)[C@H]2O[C@H]2C[C@](C)(NCc3ccc(OCc4cn(CC(=O)N[C@H](C(=O)N[C@@H](CCN)C(=O)N[C@H]5CCNC(=O)[C@H]([C@@H](C)O)NC(=O)[C@H](CCN)NC(=O)[C@H](CCN)NC(=O)[C@H](CC(C)C)NC(=O)[C@@H](CC(C)C)NC(=O)[C@H](CCN)NC5=O)[C@@H](C)O)nn4)c(OC)c3)[C@H](O)[C@H](C)O2)Oc2ccc(cc2Cl)[C@H]1O, the MIC was 11 µM (broth microdilution; BAA-747).
For CCCCCCCC(=O)N[C@@H](CCN)C(=O)N[C@H](C(=O)N[C@@H](CCN)C(=O)N[C@H]1CCNC(=O)[C@H]([C@@H](C)O)NC(=O)[C@H](CCN)NC(=O)[C@H](CCN)NC(=O)[C@H](CC(C)C)NC(=O)[C@@H](Cc2cccc(F)c2)NC(=O)[C@H](CCN)NC1=O)[C@@H](C)O, the MIC was 4 to 8 µg/mL (broth microdilution; colistin-resistant isolates).
For CCCCCCCC(=O)N[C@@H](CCN)C(=O)N[C@H](C(=O)N[C@@H](CCN)C(=O)N[C@H]1CCNC(=O)[C@H]([C@@H](C)O)NC(=O)[C@H](CCN)NC(=O)[C@H](CCN)NC(=O)[C@H](CC(C)C)NC(=O)[C@@H](Cc2ccccc2)NC(=O)[C@H](CCN)NC1=O)[C@@H](C)O, the MIC was 0.5 µg/mL (CLSI broth microdilution; 5075, CAMHB; 20 h, 37 °C).
CCCCCCCC(=O)N[C@@H](CCN)C(=O)N[C@H](C(=O)N[C@@H](CCN)C(=O)N[C@H]1CCNC(=O)[C@H]([C@@H](C)O)NC(=O)[C@H](CCN)NC(=O)[C@H](CCN)NC(=O)[C@H](CC(C)C)NC(=O)[C@@H](Cc2c(F)c(F)c(F)c(F)c2F)NC(=O)[C@H](CCN)NC1=O)[C@@H](C)O has an MIC of under 0.125 µg/mL (broth microdilution; ATCC 19606, colistin-susceptible).
CCCCCCCC(=O)N[C@@H](CCN)C(=O)N[C@H](C(=O)N[C@@H](CCN)C(=O)N[C@H]1CCNC(=O)[C@H]([C@@H](C)O)NC(=O)[C@H](CCN)NC(=O)[C@H](C)NC(=O)[C@H](CC(C)C)NC(=O)[C@@H](Cc2ccccc2)NC(=O)[C@H](CCN)NC1=O)[C@@H](C)O has an MIC of 16 µg/mL (CLSI broth microdilution; 5075, CAMHB; 20 h, 37 °C).

Some of these lines once more:
For CN[C@H](CC(C)C)C(=O)N[C@H]1C(=O)N[C@@H](CC(N)=O)C(=O)N[C@H]2C(=O)N[C@H]3C(=O)N[C@H](C(=O)N[C@H](C(=O)N[C@@H](CCCNC(=N)N)C(N)=O)c4cc(O)cc(O)c4-c4cc3ccc4O)[C@H](O)c3ccc(c(Cl)c3)Oc3cc2cc(c3O[C@@H]2O[C@H](CO)[C@@H](O)[C@H](O)[C@H]2O[C@H]2C[C@](C)(NCc3ccc(OCc4cn(CC(=O)N[C@H](C(=O)N[C@@H](CCN)C(=O)N[C@H]5CCNC(=O)[C@H]([C@@H](C)O)NC(=O)[C@H](CCN)NC(=O)[C@H](CCN)NC(=O)[C@H](CC(C)C)NC(=O)[C@@H](CC(C)C)NC(=O)[C@H](CCN)NC5=O)[C@@H](C)O)nn4)c(OC)c3)[C@H](O)[C@H](C)O2)Oc2ccc(cc2Cl)[C@H]1O, the MIC was 11 µM (broth microdilution; BAA-747).
With CCn1c(-c2ccc(OC)cc2)c(-c2ccc(OC)cc2)n(CC)c1=[Se] the MIC was over 40 µM (broth microdilution; carbapenem-resistant; 24 h).
